Published values gathered from unrelated publications.
Compare with care: the assays were run in different laboratories. ± gives the spread as reported.
Organism: Escherichia coli

| Compound | test | system | setting | how to read | MIC |
| --- | --- | --- | --- | --- | --- |
| CC[C@H](C)[C@H](N)C(=O)N[C@@H](CC(C)C)C(=O)NCC(=O)N[C@H](CCCNC(=N)N)C(=O)N[C@H](C(=O)N[C@@H](Cc1c[nH]c2ccccc12)C(=O)N[C@@H](CCCCN)C(=O)NCC(=O)N[C@H](C(=O)N[C@@H](CCCCN)C(=O)N[C@@H](CC(=O)O)C(=O)N[C@H](C(=O)N[C@@H](CC(C)C)C(N)=O)[C@@H](C)CC)[C@@H](C)CC)[C@@H](C)CC | broth microdilution | ATCC 25922 | together with: KCl 4.5 mM |  | 12.5 µM |
| CCCCCCC/C=C/C(=O)N1C(=O)/C(=C(\O)c2ccc(O)cc2)C(=O)C1CC(C)C (centres unmarked) |  | K12 ΔtolC |  |  | 25 µg/mL |
| O=C(O)C1CSC(C(=O)O)N1 (centres unmarked) |  | NDM-1 producing | compound alone |  | > 2000 µM |
| CC[C@H](C)[C@H](NC(=O)[C@H](CCCNC(=N)N)NC(=O)[C@H](CCCNC(=N)N)NC(=O)[C@H](CC(C)C)NC(=O)[C@H](CC(N)=O)NC(=O)[C@@H](N)CCCCN)C(=O)N[C@H](C(=O)N[C@@H](CCCNC(=N)N)C(=O)N[C@@H](CCCCN)C(=O)N[C@H](C(=O)N[C@H](C(=O)N[C@@H](Cc1c[nH]cn1)C(=O)N[C@H](C(=O)N[C@H](C(=O)N[C@@H](CCCCN)C(=O)N[C@@H](CCCCN)C(=O)N[C@@H](Cc1ccc(O)cc1)C(=O)NCC(=O)O)[C@@H](C)CC)[C@@H](C)CC)[C@@H](C)CC)[C@@H](C)CC)[C@@H](C)CC | broth microdilution | NBRC 3972, Mueller-Hinton broth | 24 h, 37 °C |  | 3.2 µM |
| CC(C)Oc1c(NC(=O)c2ccc(NC(=O)[C@H](CC(N)=O)NC(=O)c3ccc(NC(=O)c4ccc(C#N)cc4)cc3)cc2)ccc(C(=O)N/N=C/c2c(F)cc(C(=O)O)cc2F)c1O |  | BW25113 | 18 h, 37 °C, dark-adapted state |  | 0.84 µg/mL |
| CC[C@H](C)[C@H](NC(=O)[C@H](CC(C)C)NC(=O)[C@H](CCCNC(=N)N)NC(=O)[C@@H](N)CCCNC(=N)N)C(=O)N[C@@H](CCCNC(=N)N)C(=O)N[C@@H](CCCCN)C(=O)N[C@@H](CC(C)C)C(=O)N[C@@H](CCCCN)C(=O)NCC(=O)N[C@@H](CC(C)C)C(=O)N[C@@H](CCCCN)C(=O)N[C@@H](CCCCN)C(=O)N[C@@H](Cc1ccc(O)cc1)C(=O)N[C@@H](CC(C)C)C(=O)N[C@@H](Cc1ccc(O)cc1)C(=O)N[C@@H](Cc1ccccc1)C(=O)N[C@@H](CCCCN)C(=O)N[C@@H](CC(C)C)C(=O)N[C@@H](CCC(N)=O)C(=O)N[C@@H](CC(C)C)C(=O)N[C@@H](CC(C)C)C(=O)N[C@@H](CCCCN)C(=O)N[C@@H](CCCCN)C(N)=O | broth microdilution | KCTC 1682, Mueller-Hinton broth | together with: FeCl3 4 µM |  | 32 µM |
| CC[C@H](C)[C@H](NC(=O)[C@H](CC(C)C)NC(=O)[C@H](CCCCN)NC(=O)[C@@H](NC(=O)[C@H](C)NC(=O)[C@H](CCC(=O)O)NC(=O)[C@H](Cc1c[nH]cn1)NC(=O)[C@@H](NC(=O)[C@H](CCCCN)NC(=O)[C@H](CCC(N)=O)NC(=O)[C@H](Cc1ccccc1)NC(=O)[C@@H](NC(=O)[C@H](CCCCN)NC(=O)[C@@H](N)CCCCN)C(C)C)[C@@H](C)CC)[C@@H](C)CC)C(N)=O | CLSI broth microdilution | ATCC 25922 | 18 h, 37 °C |  | 16 µM |
| C[C@@H](O)[C@H](NC(=O)[C@H](Cc1ccccc1)NC(=O)[C@H](Cc1c[nH]c2ccccc12)NC(=O)[C@H](Cc1ccccc1)NC(=O)[C@@H](NC(=O)[C@H](Cc1ccccc1)NC(=O)[C@H](CCCNC(=N)N)NC(=O)[C@@H](N)CCCNC(=N)N)[C@@H](C)O)C(=O)N[C@@H](Cc1ccccc1)C(=O)N[C@@H](CCCNC(=N)N)C(=O)N[C@@H](CCCNC(=N)N)C(N)=O |  | UB1005 | 24 h, 37 °C |  | 8 µM |
| CCCCCC(=O)N[C@@H](CCCNC(=N)N)C(=O)N[C@@H](CCCNC(=N)N)C(=O)N[C@@H](CCCNC(=N)N)C(=O)N[C@@H](CCCNC(=N)N)C(=O)N[C@H](C(=O)N[C@@H](CC(C)C)C(=O)N[C@H](C(=O)N[C@@H](CCCNC(=N)N)C(=O)N[C@@H](CCCNC(=N)N)C(=O)N[C@H](C(=O)N[C@@H](CC(C)C)C(=O)N[C@@H](CCCNC(=N)N)C(=O)N[C@@H](CC(C)C)C(=O)N[C@@H](CCCNC(=N)N)C(=O)N[C@@H](CO)C(=O)N[C@@H](CO)C(=O)N[C@@H](C)C(=O)N[C@@H](Cc1ccc(O)cc1)C(N)=O)C(C)C)[C@@H](C)CC)[C@@H](C)CC | checkerboard |  | 24 h, 37 °C, alone, rifampicin plate |  | 8 µM |
| CC[C@H](C)[C@H](NC(=O)CNC(=O)[C@H](CC(=O)O)NC(=O)[C@H](CCCNC(=N)N)NC(=O)[C@@H](NC(=O)[C@H](CC(N)=O)NC(=O)[C@H](C)NC(=O)CNC(=O)[C@@H](NC(=O)[C@H](CCCCN)NC(=O)[C@H](CCC(=O)O)NC(=O)[C@@H](NC(=O)[C@H](CCCCN)NC(=O)[C@H](CCCCN)NC(=O)[C@H](Cc1ccccc1)NC(=O)[C@@H](NC(=O)[C@H](CCCCN)NC(=O)[C@H](Cc1c[nH]c2ccccc12)NC(=O)[C@@H](N)CCCNC(=N)N)[C@@H](C)CC)[C@@H](C)CC)C(C)C)C(C)C)C(=O)N[C@H](C(=O)N[C@@H](CCCCN)C(=O)N[C@@H](C)C(=O)NCC(=O)N1CCC[C@H]1C(=O)N[C@@H](C)C(=O)N[C@H](C(=O)N[C@@H](C)C(=O)N[C@H](C(=O)N[C@H](C(=O)NCC(=O)N[C@@H](CCC(N)=O)C(=O)N[C@@H](C)C(=O)N[C@@H](C)C(=O)N[C@H](C(=O)N[C@H](C(=O)N[C@H](C(=O)N[C@@H](CCCCN)C(N)=O)C(C)C)C(C)C)[C@@H](C)O)C(C)C)C(C)C)C(C)C)[C@@H](C)CC |  | KCTC 1682, Mueller-Hinton broth | 16 h, 37 °C | growth inhibition over 99% | 2 µM |
| CC[C@H](C)[C@H](NC(=O)[C@H](CCCNC(=N)N)NC(=O)[C@H](CCC(N)=O)NC(=O)[C@@H](NC(=O)[C@@H](NC(=O)[C@H](CCCNC(=N)N)NC(=O)[C@@H](N)CCCCN)[C@@H](C)CC)C(C)C)C(=O)N[C@@H](CCCCN)C(=O)N[C@@H](CC(=O)O)C(=O)N[C@@H](Cc1ccccc1)C(=O)N[C@@H](CC(C)C)C(=O)N[C@@H](C)C(N)=O | broth microdilution | K12 | 16 h, 37 °C |  | 140 ± 100 µM |
| CC1(C)SC2C(NC(=O)C(NC(=O)C3=C(O)C(Cc4ccc(O)cc4)NC3=O)c3ccccc3)C(=O)N2C1C(=O)O (centres unmarked) | broth microdilution | BW25113 wild type | 18 h |  | 25 µg/mL |
| C[C@@H](O)[C@H]1C(=O)N2C(C(=O)O)=C(S[C@@H]3CN[C@H](C(=O)N(C)C)C3)[C@H](C)[C@H]12 |  | NCCP 16044 carbapenem-resistant, Mueller-Hinton broth | 16 h, 37 °C |  | 32 µM |
| NC(=O)[C@@H]1CC[C@@H]2CN1C(=O)N2OS(=O)(=O)O | broth microdilution | ATCC 2469, NDM-positive | compound alone |  | 16 µg/mL |
| CC1(C)SC2C(NC(=O)C(NC(=O)C3=C(O)C4(CC4)NC3=O)c3ccccc3)C(=O)N2C1C(=O)O (centres unmarked) | broth microdilution | isolate IU 356 A, KPC-3, VIM-1, TEM | together with: clavulanic acid 6 µg/mL |  | > 200 µg/mL |
| CC1(C)S[C@@H]2[C@H](NC(=O)C(C(=O)O)c3ccccc3)C(=O)N2[C@H]1C(=O)O (some centres unmarked) |  |  |  |  | 1000 µg/mL |
| CN(C)c1cc(NC(=O)CNC(C)(C)C)c(O)c2c1C[C@H]1C[C@H]3[C@H](N(C)C)C(O)=C(C(N)=O)C(=O)[C@@]3(O)C(O)=C1C2=O |  | DH5a clone with KPC-100 |  |  | 0.125 µg/mL |
| CC(C)Oc1c(NC(=O)c2ccc(NC(=O)[C@H](CC(N)=O)NC(=O)c3ccc(NC(=O)c4ccc(C#N)c(F)c4)cc3)cc2)ccc(C(=O)Nc2ccc(C(=O)O)cc2)c1O |  | K12 ΔtolC |  |  | ≤ 0.03 µg/mL |
| CC[C@H](C)[C@H](NC(=O)[C@H](CCCCN)NC(=O)[C@H](CCCCN)NC(=O)CNC(=O)[C@H](CCCCN)NC(=O)[C@H](CC(C)C)NC(=O)[C@H](CCCCN)NC(=O)[C@H](CCCNC(=N)N)NC(=O)[C@@H](NC(=O)[C@H](CC(C)C)NC(=O)[C@H](CCCNC(=N)N)NC(=O)[C@@H](N)CCCNC(=N)N)[C@@H](C)CC)C(=O)N[C@@H](Cc1ccc(O)cc1)C(=O)N[C@@H](CC(C)C)C(=O)N[C@@H](Cc1ccc(O)cc1)C(=O)N[C@@H](Cc1ccccc1)C(=O)N[C@@H](CCCCN)C(=O)N[C@@H](CC(C)C)C(=O)N[C@@H](CCC(N)=O)C(=O)N[C@@H](CC(C)C)C(=O)N[C@@H](CC(C)C)C(=O)N[C@@H](CCCCN)C(=O)N[C@@H](CCCCN)C(N)=O | broth microdilution | KCTC 1682, Mueller-Hinton broth | together with: NH4Cl 6 µM |  | 16 µM |
| CC[C@H](C)[C@H](NC(=O)[C@@H](NC(=O)[C@H](C)NC(=O)[C@H](CCCCN)NC(=O)[C@H](CCCNC(=N)N)NC(=O)CNC(=O)[C@H](CCSC)NC(=O)[C@H](CCC(=O)O)NC(=O)[C@H](CCC(N)=O)NC(=O)[C@@H](NC(=O)[C@H](CCCCN)NC(=O)[C@H](CC(N)=O)NC(=O)[C@H](CCCCN)NC(=O)[C@H](CC(C)C)NC(=O)[C@H](Cc1ccc(O)cc1)NC(=O)[C@H](CCC(N)=O)NC(=O)[C@H](CCCNC(=N)N)NC(=O)[C@@H](NC(=O)[C@@H](NC(=O)[C@H](CCC(=O)O)NC(=O)[C@H](CCCCN)NC(=O)CN)[C@@H](C)O)[C@@H](C)CC)[C@@H](C)CC)C(C)C)C(=O)O | broth microdilution | K88, Mueller-Hinton broth | 37 °C |  | 54 µM |
